Experimental data from different studies.
Numbered parts are unrelated; each lists some results of a single study. Positions count from the first letter of the parent shown.

Sample 1 — technique: protein binding microarray; molecule type: double-stranded DNA, one strand shown; sample: in vitro; concentration: not given; baseline: not given; reading: higher = stronger binding
Target: Histone acetyltransferase KAT6A, both winged helices, GST fusion (KAT6A, Homo sapiens, UniProt Q92794, residues 1-181)
Notes: 8-mer, flanks averaged, mean of 2 arrays, mostly near background
Construct (chain): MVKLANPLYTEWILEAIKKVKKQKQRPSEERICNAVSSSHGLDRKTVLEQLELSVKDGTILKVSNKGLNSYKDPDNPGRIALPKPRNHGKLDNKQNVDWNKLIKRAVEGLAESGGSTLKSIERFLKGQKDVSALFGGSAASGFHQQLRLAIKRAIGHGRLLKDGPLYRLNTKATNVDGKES
The E-score of `ACTTAACT` is reported as -0.104.
With `ACGCAATC` the E-score was 0.107.
`AATCCAGT` gave an E-score of -0.111.
`AGCTTGTG` gave an E-score of -0.26.
`CTGTCCAC` gave an E-score of -0.0625.
`CACAATCC` gave an E-score of -0.0474.
`GCCCCGGA` gave an E-score of 0.0839.
The E-score of `AAGCAGCG` is reported as 0.083.
`CTCACGGC` gave an E-score of 0.322.
`AGTTGCCG` gave an E-score of 0.161.
For `AGACGCAA`, the E-score was 0.138.
`CTGCAGTC` has an E-score of -0.191.
`ACAGGTAC` has an E-score of -0.136.
`AATTGACA` gave an E-score of -0.0507.
For `GGCATGAC`, the E-score was 0.113.
For `AGCAGGCA`, the E-score was -0.124.
The E-score of `AAACATGG` is reported as -0.0273.
For `ACTTCTCA`, the E-score was -0.233.
`ACCGTGAC` gave an E-score of 0.1.
The E-score of `GGGAATAA` is reported as -0.0249.
`ACGCGACG` gave an E-score of 0.261.
`CATAGGTC` gave an E-score of -0.137.
`AGCAATGG` has an E-score of -0.205.
With `GCCCCTCC` the E-score was -0.103.
`AATATCGA` gave an E-score of 0.00588.

Sample 2 — technique: DHFR PCA, deep sequencing; sample: yeast; added: (+)-ABA 200 µM; baseline: wild-type fitted maximum; reading: higher = stronger binding
Target: ABI1, truncated, D143A, DHFR fusion (Arabidopsis thaliana)
Notes: methotrexate growth selection, single substitutions
Starting sequence: PYL1, truncated, DHFR fusion (Arabidopsis thaliana); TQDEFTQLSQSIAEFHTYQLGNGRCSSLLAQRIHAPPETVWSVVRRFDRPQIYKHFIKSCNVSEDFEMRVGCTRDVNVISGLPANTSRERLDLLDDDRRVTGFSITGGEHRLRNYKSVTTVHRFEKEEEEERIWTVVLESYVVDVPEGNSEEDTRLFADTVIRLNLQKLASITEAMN
For `D75P`, “relative binding score” read 11.9%.
`N22E` — result for “relative binding score”: 102%.
Under “relative binding score”, `D153K` is recorded as 8.7%.
`G107D`: “relative binding score” 88.7%.
`D65G`: “relative binding score” 102%.
Under “relative binding score”, `E174C` is recorded as 89.1%.
Under “relative binding score”, `E14W` is recorded as 62.1%.
`D48G` — result for “relative binding score”: 66.6%.
`A175R`: “relative binding score” 100%.
`K58M` — result for “relative binding score”: 85.8%.
Under “relative binding score”, `Y53M` is recorded as 62.6%.
Under “relative binding score”, `A13S` is recorded as 98.6%.
`L91T`: “relative binding score” -3.37%.
Under “relative binding score”, `C72G` is recorded as 93.3%.
For `V137P`, “relative binding score” read 2.63%.
`H110D` — result for “relative binding score”: 3.33%.
`D48M` — result for “relative binding score”: 7.53%.
For `T17K`, “relative binding score” read 85.9%.
For `G81A`, “relative binding score” read 63.2%.
For `S59I`, “relative binding score” read 76%.
Under “relative binding score”, `N85F` is recorded as 101%.
`S80H`: “relative binding score” 72.1%.

Sample 3 — technique: RNA Bind-n-Seq; molecule type: RNA; sample: in vitro; concentration: 365 nM; baseline: no-protein control; reading: higher = stronger binding
Target: RNA binding protein fox-1 homolog 2, RRM domain, GST-SBP tag (RBFOX2, Homo sapiens, UniProt O43251-10, residues 100-194)
Notes: natural RNA segment, single round, ends assumed
Target sequence (chain): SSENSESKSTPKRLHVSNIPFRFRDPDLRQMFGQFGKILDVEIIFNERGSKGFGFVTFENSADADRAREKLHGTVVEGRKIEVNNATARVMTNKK
`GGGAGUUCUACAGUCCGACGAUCUACUUUGAUAAAGCGUGUGCUUAAAGUGGUAUCACCAGUGAUUUCUAACAUGAUUUUAAAAAAAUAAAACCCCAAUUAAAAUGUUCUUUAAUAUUCAUUUAAUUUGUGCAUGGAAUUCUCGGGUGCCAA` — result for “RBNS enrichment (R)”: 7.49.
Under “RBNS enrichment (R)”, `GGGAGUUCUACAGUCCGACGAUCAGAUCUCAAUCUUAUCCUUUGCCGCCUGCUAUCACCAUAUGGUGUUGGAUUCAAGUUUAAUUAGCUAAUAACCAUGGAGAUUGUUUUACAACUUUGUGAUAUGGUCAAGCUGGAAUUCUCGGGUGCCAA` is recorded as 0.252.
`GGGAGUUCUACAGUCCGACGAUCGCUGGGGAUUGGAUGAAAGUCAAAGGUUGUCUACUUUAAGAAAAUAAAAUACCCUGAAUGGAGCCCAGCAUUGUCCCAGUGUGCUAUGUGUGUAGCUGACCUGUGGCUGGUGGAAUUCUCGGGUGCCAA`: “RBNS enrichment (R)” 1.15.
For `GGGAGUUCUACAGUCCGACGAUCGAGGUUUGGUCUUCUGGGUGGUGUCCGUUUCCCCUCACUGUCAGGGAAAGCUGGAUCCCUCUGGCUGACUUAGAGUACUGUGACUUGGGCAUUGCUAAUGCCAGCGUGGGUGGAAUUCUCGGGUGCCAA`, “RBNS enrichment (R)” read 0.34.
For `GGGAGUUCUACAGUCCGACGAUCUUCAGCUCCCUGAGAAGUAGCUCUUCCUCCAGGGCAUGGAAGGAUGGGAGGCCAGCAGGACCCUGCCCCAUGUGUCAGCUACCACAGAUUAAAGCUGUUACCGCACACGGUGGAAUUCUCGGGUGCCAA`, “RBNS enrichment (R)” read 0.342.
For `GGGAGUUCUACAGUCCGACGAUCCUUUUGCUUUAUCAGGAACACCAAAAUGAAUUCAGGAGUUUGACUCCCUUAAAAUCUGGUCUGCUUAAUUUCAAUUUUUGUAUCCAUUCUAAUGAUGCAACAUAGCACAGUGGAAUUCUCGGGUGCCAA`, “RBNS enrichment (R)” read 0.644.
For `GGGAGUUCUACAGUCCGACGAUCAGCUGUUCCUGUGUUCUUCGUAUAUACACACAAAAAGGAGCGGGCAGGGCCGCUCGAUGCCUUUGCUGUUUAGCUUCCUCCAGAGGAGGGGACUUGUAGGAAUCUGCCUUUGGAAUUCUCGGGUGCCAA`, “RBNS enrichment (R)” read 0.341.
Under “RBNS enrichment (R)”, `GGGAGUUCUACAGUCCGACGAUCUUCUGAUCACUCUAGCCACCGGAGGAUGAAAGGGAUCUUUUGCAUAGCAGAGGAUUUUAUACACAAAUAUAUUUUGUUUGUAAUGAGCCAUUCUCAAUAAAUAUUCUCACUGGAAUUCUCGGGUGCCAA` is recorded as 0.329.
`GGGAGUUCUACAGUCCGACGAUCUCUGUGUCCUACAUAGAGCAGCAACUUUAUCUGCGGUGGGCUCCAAGCUAGAUUUCCGACAGCAUUAUUCUGAGAGCUGGCUACCAUUACCCUUCUUGCUAUUGGAAACUUGGAAUUCUCGGGUGCCAA`: “RBNS enrichment (R)” 6.3.
`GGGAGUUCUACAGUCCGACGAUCAUAGAAAUAUUUGGGUUUAGAGCAUCUCAAAAGUGGGUAGAAUGUCCUUUGGGAUUUUGUUGCUCCGUUUAAACCAGGUGUAUUGUGACAUGAACAUGACUUUCCUAAAGUGGAAUUCUCGGGUGCCAA` — result for “RBNS enrichment (R)”: 2.17.
`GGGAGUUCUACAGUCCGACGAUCGCAAAGUGGGAAGCCACGGCAGCCUCCGGCCUCCCCUGCUGAAUGCUCUAUACAAAUUCAGCACCUUUGACUGGUUUUGAGUGUGCAUUUUCUUUUAGUGAUACUGUUACUGGAAUUCUCGGGUGCCAA` — result for “RBNS enrichment (R)”: 0.37.
`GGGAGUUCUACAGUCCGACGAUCCACCAGCUGUGCCAUGUUCGAGACCUGGGCUGGCUCAAGCCGGCUGCCUUCACCGGGAGCCACGCCGUGCAUGGCAGCCUUCCCUGGACGAGCGCUCGGUGUUCACACUGUGGAAUUCUCGGGUGCCAA`: “RBNS enrichment (R)” 1.13.

Sample 4 — technique: universal PBM; molecule type: double-stranded DNA, one strand shown; sample: in vitro; concentration: not given; reading: higher = stronger binding
Target: Sal-like protein 4, full length isoform B (SALL4, Homo sapiens, UniProt Q9UJQ4-2, residues 1-616)
Notes: 8-mer, flanks averaged, mean of replicates
`ATCAATCC` gave an E-score of 0.0534.
For `ACGGGACG`, the E-score was -0.256.
The E-score of `ATGCCCAC` is reported as -0.0429.
`AGTCTCCG` gave an E-score of -0.237.
With `GCGGTCCA` the E-score was -0.245.
With `CGGTGATC` the E-score was -0.302.
For `ACCACACG`, the E-score was -0.0863.
The E-score of `CTGATGTC` is reported as -0.0379.
`GATCTCGC` has an E-score of -0.116.
`ACGCTGAT` gave an E-score of -0.00137.
`CTACTATC` gave an E-score of 0.101.
With `AGAAGTGA` the E-score was 0.0215.
`GTGACAAA` has an E-score of 0.0483.
With `CCACACGG` the E-score was -0.256.
`ACTAGCCA` gave an E-score of 0.0205.
`TGGAGCAA` has an E-score of 0.0331.
`ACGTTATC` gave an E-score of 0.0719.
For `AGTGGCGC`, the E-score was -0.104.
`ATGGATTA` has an E-score of 0.239.
`CACCACTG` has an E-score of -0.116.
With `GCTTCCAC` the E-score was -0.214.
The E-score of `ACCGCTGC` is reported as -0.416.
The E-score of `ACAATCCC` is reported as -0.00469.
`AATCTTAC` gave an E-score of 0.256.
`GTACTCAA` has an E-score of 0.053.

Sample 5 — target: CCND2, cyclin fold, Cln2 fusion (human); technique: yeast growth competition, sequencing; sample: yeast; notes: weak parent motif; baseline: not given; reading: higher = stronger binding
Starting sequence: HASPIN docking peptide (human); ASLRSVLFGLMNS; partner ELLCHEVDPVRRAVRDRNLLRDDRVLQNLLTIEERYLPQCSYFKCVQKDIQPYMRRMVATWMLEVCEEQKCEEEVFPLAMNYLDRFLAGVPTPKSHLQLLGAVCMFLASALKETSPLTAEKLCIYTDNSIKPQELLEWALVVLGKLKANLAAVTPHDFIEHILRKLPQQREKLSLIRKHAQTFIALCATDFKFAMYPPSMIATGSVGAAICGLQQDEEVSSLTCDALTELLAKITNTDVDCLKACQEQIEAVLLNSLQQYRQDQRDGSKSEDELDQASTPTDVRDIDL
`ASLRAVLFGLMNS [S5A]` — result for “normalised enrichment score”: -0.383.
`ASARSVLFGLMNS [L3A]`: “normalised enrichment score” -0.277.
Under “normalised enrichment score”, `ASLRSVLFGAMNS [L10A]` is recorded as -0.147.
Under “normalised enrichment score”, `ASLASVLFGLMNS [R4A]` is recorded as -1.08.
`ASLRSALFGLMNS [V6A]` — result for “normalised enrichment score”: -0.114.
`ASLRSVLFGLMNA [S13A]`: “normalised enrichment score” -1.07.

For quick reference, copied from above (sample 4):
`ATCAATCC` gave an E-score of 0.0534.
For `ACGGGACG`, the E-score was -0.256.
The E-score of `ATGCCCAC` is reported as -0.0429.
`AGTCTCCG` gave an E-score of -0.237.
With `GCGGTCCA` the E-score was -0.245.
With `CGGTGATC` the E-score was -0.302.
For `ACCACACG`, the E-score was -0.0863.
The E-score of `CTGATGTC` is reported as -0.0379.
`GATCTCGC` has an E-score of -0.116.
`ACGCTGAT` gave an E-score of -0.00137.
`CTACTATC` gave an E-score of 0.101.
